Published values gathered from unrelated publications.
Compare with care: the assays were run in different laboratories. “And” joins repeats or separate records; there may be more than shown. ± marks the error that the study gave.

O=C(Nc1ccccc1)c1ccc(Nc2nnc(-c3ccc(O)cc3)c3ccccc23)cc1 has a licking time of 0 s (TRPV1; nocifensive response; mouse; intraplantar, 1 µg).
CCCCCC(O)/C=C/C=O (stereo not shown) gave an IC50 of 73 µM and 92 µM and 131 µM and 66 µM and 77 µM (proteome cysteines; IA-probe labelling, competitive isoTOP-ABPP; MDA-MB-231 proteome).
For C=CC(=O)Nc1cc(-c2nn(C3CCN(CCNC(=O)[C@H](C)CCC45CC6CC(CC(C6)C4)C5)CC3)c3ncnc(N)c23)ccc1Oc1ccccc1, the inhibition was 13.1% (MAP2K1 and MAP2K2; KiNativ; 2 µM).
For C=CC(=O)N1[C@@H](c2ccc3c(c2)OCO3)c2[nH]c3ccccc3c2C[C@H]1C(=O)N1CCN(C)CC1, the relative co-enrichment was 75% (human cyclin E1 wild type-3xFLAG:CDK2; co-IP with TMT proteomics, refers to: KPNB1; concentration not given, Q14974; reference: wild type DMSO).
Nc1ncc2c(n1)-c1c([nH]c3ccc(C4=CCOCC4)cc13)CCC2 has a remaining binding of 70% (FLT3 ITD D835V; scanMAX; 1 µM; reference: control).
The ΔTm of C[n+]1ccc(/C=N/NC(=O)N/N=C/c2cc[n+](C)cc2)cc1 is reported as 2.4 ± 1.9 °C (MYC parallel G4 DNA; FRET melting; 1 µM, DNA 0.2 µM).
Under “log2 fold change”, c1ccc(-c2n[nH]cc2-c2ccnc3ccccc23)nc1 is recorded as -0.04 (KIN28 (Candida albicans); kinase binding, MIB/MS competition; Candida albicans lysate; 10 µM; reference: DMSO).
With C[n+]1cc(/C=N/NC(=O)c2cc(C(=O)N/N=C/c3cc4ccccc4[n+](C)c3)ncn2)cc2ccccc21 the ΔTm was 4.6 ± 0.1 °C (MYC parallel G4 DNA; FRET melting; 1 µM, DNA 0.2 µM).
The cooperativity alpha of Cc1ncsc1-c1ccc(CNC(=O)[C@@H]2C[C@@H](O)CN2C(=O)[C@@H](NC(=O)C2(F)CC2)C(C)(C)C)c(OCCC2CCN(c3nc(N(C)CCNC(=O)C(C)C)nc(N4CCn5nnc(CO)c5C4)n3)CC2)c1 is reported as 9.8 (VHL-elongin C-elongin B and BRD9; SPR; immobilized VHL-elongin C-elongin B; reference: binary KD over ternary KD).
CCN1CCN(Cc2ccc(C(=O)Nc3ccc(C)c(NCc4cnc5[nH]ccc5c4OC)c3)cc2C(F)(F)F)CC1 gave a remaining binding of 5% (FLT3 ITD; KINOMEscan; 1 µM; reference: control).
The maximal inhibition of Fc1ccc(Nc2nc(NC3CCCCC3)c3ccccc3n2)cc1F is reported as -8.8% (β2AR/β1AR ECL2/3 chimera; β-arrestin2 recruitment, antagonist, BRET; reference: isoprenaline maximal response).
C[n+]1cccc2cc(/C=N/NC(=O)c3cccc(C(=O)N/N=C/c4ccc5c(ccc[n+]5C)c4)n3)ccc21 gave a ΔTm of 2.3 ± 1.1 °C (hp2 hairpin duplex DNA; FRET melting; 1 µM).
For CC(=O)NCCN(CCC(=O)NCCN(CCC(=O)NCCN(CCC(=O)NCCC(N)=O)C(=O)[C@@H](N)Cc1ccccc1)C(=O)[C@@H](N)CCCNC(=N)N)C(=O)[C@@H](N)CCCNC(=N)N, the melting temperature was 61.7 ± 0.1 °C (HIV-1 TAR RNA; RNA thermal stability, UV melting; 5 µM, pH 7.5, with: 1 µM TAR RNA).
Under “percent of control”, C=CC(=O)Nc1cccc(Cn2ncc3cnc(Nc4cnn(CCOC)c4)nc32)c1 is recorded as 100% (GSK3B human; binding, KINOMEscan; 100 nM; lower = stronger binding).
For C[n+]1cccc2cc(/C=N/NC(=O)N/N=C/c3ccc4c(ccc[n+]4C)c3)ccc21, the ΔTm was 2.2 ± 0.7 °C (hp2 hairpin duplex DNA; FRET melting; 1 µM).
With Nc1ncc(-c2cc(-c3cnn(CC(F)(F)F)c3)ncc2F)nc1C(=O)NC1CNCC(F)C1 (stereo not shown) the remaining binding was 100% (YANK1; KINOMEscan; 1 µM; reference: DMSO control).
With C[n+]1ccc(/C=N/NC(=O)c2ccc3ccc4ccc(C(=O)N/N=C/c5cc[n+](C)c6ccccc56)nc4c3n2)c2ccccc21 the ΔTm was 13 ± 0.5 °C (MYC parallel G4 DNA; FRET melting; 1 µM, DNA 0.2 µM).
CCCCCCc1cccc([C@H](O)C[C@H](CO)NC(=O)CCCCCCCCCCBr)c1 has a sphingomyelin level of 177000 pmol/sample and 110000 pmol/sample and 171000 pmol/sample (CERT; HPLC-MS/MS, refers to: SM 24:1; HeLa; 1 µM, 24 h).
With C[n+]1ccc(/C=N/NC(=O)c2cc(C(=O)N/N=C/c3cc[n+](C)c4ccccc34)ncn2)c2ccccc21 the ΔTm was 3.1 ± 0.2 °C (MYC parallel G4 DNA; FRET melting; 1 µM, DNA 0.2 µM, with: duplex DNA competitor 10 µM).
With O=C(CCCCCOc1ccc2ccccc2c1)N[C@@H](CO)C[C@@H](O)c1ccc(-c2ccccc2)cc1 the sphingomyelin level was 619000 pmol and 667000 pmol and 673000 pmol (CERT; HPLC-MS/MS, refers to: SM C16; HeLa; 1 µM, 24 h).
The ΔTm of O=C(N/N=C/c1cc[n+](CC2CC2)c2ccccc12)c1cccc(C(=O)N/N=C/c2cc[n+](CC3CC3)c3ccccc23)n1 is reported as 14 ± 0.3 °C (MYC parallel G4 DNA; FRET melting; 1 µM, DNA 0.2 µM, with: duplex DNA competitor 10 µM).
With CC(=O)NCCN(c1nc(N2CC3C(CCOc4cc(-c5scnc5C)ccc4CNC(=O)[C@@H]4C[C@@H](O)CN4C(=O)[C@@H](NC(=O)C4(F)CC4)C(C)(C)C)C3C2)nc(N2CC(n3ccnc3)C2)n1)C(C)C (stereo partly shown) the cooperativity alpha was 30 (VHL-elongin C-elongin B and BRD9; SPR; immobilized VHL-elongin C-elongin B; reference: binary KD over ternary KD).

Some of these lines once more:
Under “percent of control”, C=CC(=O)Nc1cccc(Cn2ncc3cnc(Nc4cnn(CCOC)c4)nc32)c1 is recorded as 100% (GSK3B human; binding, KINOMEscan; 100 nM; lower = stronger binding).
CCCCCCc1cccc([C@H](O)C[C@H](CO)NC(=O)CCCCCCCCCCBr)c1 has a sphingomyelin level of 177000 pmol/sample and 110000 pmol/sample and 171000 pmol/sample (CERT; HPLC-MS/MS, refers to: SM 24:1; HeLa; 1 µM, 24 h).
C[n+]1cccc2cc(/C=N/NC(=O)c3cccc(C(=O)N/N=C/c4ccc5c(ccc[n+]5C)c4)n3)ccc21 gave a ΔTm of 2.3 ± 1.1 °C (hp2 hairpin duplex DNA; FRET melting; 1 µM).
